Measurements from different studies.
“And” joins repeats or separate records; there may be more than shown.
Target: Alpha-2A adrenergic receptor (ADRA2A, Homo sapiens, UniProt P08913)
Sequence of UniProt P08913 (whole entry, looked up): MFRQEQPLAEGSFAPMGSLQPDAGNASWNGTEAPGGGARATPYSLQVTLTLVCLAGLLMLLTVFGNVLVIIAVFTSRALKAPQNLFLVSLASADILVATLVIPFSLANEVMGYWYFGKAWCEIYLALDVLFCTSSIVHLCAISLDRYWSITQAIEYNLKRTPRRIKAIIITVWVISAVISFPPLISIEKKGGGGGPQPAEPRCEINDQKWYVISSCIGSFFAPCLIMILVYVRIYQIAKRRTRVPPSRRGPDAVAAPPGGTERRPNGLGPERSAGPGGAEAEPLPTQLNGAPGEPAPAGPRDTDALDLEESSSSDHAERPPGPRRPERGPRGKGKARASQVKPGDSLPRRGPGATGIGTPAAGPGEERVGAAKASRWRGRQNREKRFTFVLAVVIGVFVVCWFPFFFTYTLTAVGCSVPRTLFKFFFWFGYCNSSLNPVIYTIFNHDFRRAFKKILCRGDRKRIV

SMILES = N[C@H](C(=O)N1CCCC1)C1CCN(c2nccc3c(-c4ncc(Cl)cc4Cl)cccc23)CC1; test = functional response, agonist; setting = 10 µM; quantity = response; value = 0%
SMILES = CCc1nnc(-c2c(OC)cc(-c3cnc4cc(-c5cnn(C)c5)ccn34)cc2OC)o1; test = antagonist radioligand, radioligand binding; setting = 10 µM, SafetyScreen44 alpha 2 A mean; how to read = lower = stronger displacement; quantity = remaining binding; value = 107%
SMILES = CS(C)(=O)=Nc1ccc(-c2ccc(-c3nc4cc(O[C@@H]5CO[C@H]6[C@@H]5OC[C@H]6O)[nH]c4cc3F)cc2)cc1; test = calcium signal, antagonist; setting = 10 µM; quantity = inhibition; value = -3%
SMILES = Cc1ccc2c(n1)c(-c1cccc(S(C)(=O)=O)c1)c(C)n2C/C(F)=C/CN; test = ligand displacement, radioligand; setting = 10 µM; quantity = inhibition; value = 65%
SMILES = CN[C@@H]1[C@H](O)[C@H](NC)[C@H]2O[C@]3(O)[C@H](O[C@@H]2[C@H]1O)O[C@H](C)C[C@H]3NC(=O)Cc1cc(Cl)ccn1; test = ligand displacement, radioligand; setting = 10 µM; quantity = inhibition; value = 0%
SMILES = C[C@@H]1COCCN1c1nc(NCc2cccnc2C(F)(F)F)c2cccnc2n1; test = binding; setting = CEREP panel; quantity = IC50; value = > 100 µM
SMILES = O=C(c1cc(Cc2n[nH]c(=O)c3ccccc23)ccc1F)N1CC(CNC2CC2)C1; test = cell-free assay; setting = 10 µM; quantity = inhibition; value = 25%
SMILES = C/C(=N\OCCCN1CCCCC1)c1ccc(C(F)(F)F)cc1; test = agonist, IP-One; setting = 10 µM; quantity = activation; value = 2.45%
SMILES = COc1ccc(F)cc1S(=O)(=O)Nc1cnc2c(c1)C(=O)NCCO2; test = ligand displacement, radioligand; setting = 10 µM; quantity = inhibition; value = 7%
SMILES = Cc1cc(Nc2nc(C[C@@]3(C(=O)O)CCN(Cc4cccc(Cl)c4F)[C@H](C)C3)cc(C)c2F)[nH]n1; test = inhibitor; setting = 10 µM; quantity = inhibition; value = 1.15%
SMILES = O=C(O)c1ccc(-c2nc(-c3ccccc3Cl)c3sccn23)cc1; test = radioligand binding; setting = 10 µM, with: yohimbine; how to read = relative to: control; quantity = specific binding; value = 98.8% and 95.1%
SMILES = CCOC(=O)[C@](CC)(CCCSCCOCCOCCNC(=O)c1ccc(-c2c3ccc(=N)c(S(=O)(=O)O)c-3oc3c(S(=O)(=O)O)c(N)ccc23)c(C(=O)O)c1)NC(=O)c1ccc(C2CC2)c(Cc2ccc(F)cc2)n1; test = ligand displacement, radioligand; setting = 10 µM; quantity = inhibition; value = 5%
SMILES = Cc1cc(-c2ccc3ccccc3c2)nnc1NCCN1CCN(C)CC1; test = antagonist; setting = 10000 nM; how to read = relative to: control; quantity = activity; value = 0%
SMILES = CCO[C@H]1[C@H](O)[C@@H](N)[C@@H](O[C@H]2[C@H](O[C@@H]3O[C@H](CO)[C@@H](O[C@H]4O[C@@H](CN)[C@@H](O)[C@H](O)[C@H]4N)[C@H]3O)[C@@H](O)[C@H](N)C[C@@H]2N)O[C@@H]1CO; test = radioligand binding; setting = 10 µM, 1% DMSO; quantity = specific binding; value = 1%

For quick reference, copied from above:
SMILES = C/C(=N\OCCCN1CCCCC1)c1ccc(C(F)(F)F)cc1; test = agonist, IP-One; setting = 10 µM; quantity = activation; value = 2.45%
